Results gathered from unrelated publications.
Each numbered part is a random draw from the data of one study; scales do not carry over between parts. Values joined by “and” are separate records of one study, mostly repeats; a detail may differ. Substitutions count along the parent as printed.

Set 1 — method: competition protein-binding microarray; molecule type: double-stranded DNA, one strand shown; matrix: in vitro; tested at: 2 µM; together with: Cbf1 competitor, 0.05 µM; direction: higher = stronger binding; shared flanks, not repeated: … GTCTTGATTCGCTTGACGCTGCTG
Target: Phosphate system positive regulatory protein PHO4, full length, GST-tagged (PHO4, Saccharomyces cerevisiae, UniProt P07270, residues 1-312)
Notes: whole 60-bp probe, lowest competitor level
Residues (chain): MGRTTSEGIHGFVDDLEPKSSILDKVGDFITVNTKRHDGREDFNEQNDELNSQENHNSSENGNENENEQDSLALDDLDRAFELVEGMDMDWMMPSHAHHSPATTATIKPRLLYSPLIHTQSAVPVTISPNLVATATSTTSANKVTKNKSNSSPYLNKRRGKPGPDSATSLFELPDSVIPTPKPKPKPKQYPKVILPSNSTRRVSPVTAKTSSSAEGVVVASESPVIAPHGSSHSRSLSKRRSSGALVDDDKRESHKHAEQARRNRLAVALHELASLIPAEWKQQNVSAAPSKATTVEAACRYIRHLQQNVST
| Sequence | fluorescence intensity [a.u.] |
| --- | --- |
| AAAGCGGTAATTTGCTCCGTGGGTGCAGATATCTAT | 5280 |
| TGCGCAACAACTTGTCACGCCACTTTATGTCTAGAA | 4930 |
| CATACCCAACCTTGGGATGTGGGTGAAGATATTTGT | 4540 |
| TCCCATTGCATTACCCACGTGTGGAAGCGTCTTCCA | 20800 |
| ATTGTTTCCAGGCGTCATGTGTTTCCTTGATGATAT | 7930 |
| ATATTCTTAGTATTCCATGTGTCTCGTAATACCTTA | 6720 |
| CACCGCCCCCAGGTAACCGTGCGGAATGAGCTAATC | 4680 |
| TTATTCCGCCGATTCCACGGGTGCGGTGCTACCAAG | 5970 |
| TGGAACAAGGTGTTCCAGGTGACAAAGTTGGTTTCA | 3150 |
| AAATTACTAAGTTGAACCGTGGGTGACGCCGTATGA | 6540 |
| TTATTGCTGTTAGGACCCGTGATGGGTTCGTAGATC | 6600 |
| CATACCCAACCTTGTCACAGTACTTAAGATATTTGT | 3930 |
| GGATCTGCCTATGCCTTCGTGGGTAATCTCTTACTC | 4890 |
| CCGAGTCAAGAACATCACATGTTCATAATAACCGCA | 9640 |
| TGCGTTCTATGCGAAAACGTGCTAATTTAATATATA | 12100 |
| AAGAAGAGGCAGATTACCGTGATGGTATAGAGCCCA | 3140 |
| GCAAATTACCATTTGAGCGTGCGGAAATAAGCTCCT | 6640 |
| CGGGGTTAAGTTTGGCGCGTGGGTGGCTTGCAGCAG | 11200 |
| AGAAGAGGCATATCGCACGTTTTACCGGGTCAGAAA | 12700 |

Set 2 — target: CCND3, cyclin fold, Cln2 fusion (human); method: yeast growth competition, sequencing; matrix: yeast; notes: weak parent motif; reference: not given; direction: higher = stronger binding
Parent: RBL2 docking peptide (human); STTRRRLFVENDS
| Change | normalised enrichment score |
| --- | --- |
| STCRRRLFVENDS [T3C] | 0.168 |
| STTRRRLFVENAS [D12A] | -0.0288 |
| STTRRRLFPENDS [V9P] | 0.083 |
| STTRRRLFVEMDS [N11M] | 0.155 |
| STTRRRPFVENDS [L7P] | 0.0181 |
| SATRRRLFVENDS [T2A] | 0.119 |
| STTRRRLFVEFDS [N11F] | 0.135 |
| STTRRRLFRENDS [V9R] | 0.105 |
| STTRHRLFVENDS [R5H] | 0.228 |
| STTRPRLFVENDS [R5P] | 0.169 |
| STTRRRLFVENGS [D12G] | 0.141 |
| STTRERLFVENDS [R5E] | 0.111 |
| STTRRRLFVENDF [S13F] | 0.134 |
| STNRRRLFVENDS [T3N] | 0.0723 |
| KTTRRRLFVENDS [S1K] | 0.0478 |

Set 3 — method: protein binding microarray; molecule type: double-stranded DNA, one strand shown; matrix: in vitro; tested at: not given; reference: not given; direction: higher = stronger binding
Target: Histone acetyltransferase KAT6A, winged helix 1, GST fusion (KAT6A, Homo sapiens, UniProt Q92794, residues 1-85)
Notes: 8-mer, flanks averaged, mean of 2 arrays, mostly near background
Construct (chain): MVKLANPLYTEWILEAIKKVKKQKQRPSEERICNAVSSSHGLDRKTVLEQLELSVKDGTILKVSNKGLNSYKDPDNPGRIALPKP
| Sequence | E-score |
| --- | --- |
| CTATGGCA | -0.143 |
| CAGAAAGC | -0.056 |
| GACCACAA | -0.11 |
| AGTCTTCC | -0.0428 |
| CCACTGCG | 0.145 |
| CCTGGGAC | -0.0352 |
| ATGATCCG | 0.213 |
| AAGAAGCG | 0.166 |
| CCTCTACG | -0.104 |
| CCCTCAGA | -0.145 |
| AACAGAGC | -0.014 |
| TAGACTCA | -0.112 |
| GTCTTGCA | 0.0351 |
| CTGAGGTA | -0.137 |

Single results of other studies
| Molecule | target | test | test system | conditions | scale | quantity | value |
| --- | --- | --- | --- | --- | --- | --- | --- |
| PhoQ, residues 284 288 289 292 302 303 SASVAL | PhoP, residues 12 14 15 18 19 LWHSL (Escherichia coli, UniProt P23836) | Sort-seq, measured: YFP reporter | E. coli | PhoQ-PhoP variant library, together with: 10 µM Mg2+ | reference: high Mg2+ state, higher = stronger signaling | fold induction | 21.7 and 11.1 |

For quick reference, copied from above (set 3):
| Sequence | E-score |
| --- | --- |
| CCTGGGAC | -0.0352 |
| GTCTTGCA | 0.0351 |
| ATGATCCG | 0.213 |
